Measured values collected from several papers.
Values joined by “and” are separate records of one study, mostly repeats; a detail may differ. ± marks the error that the study gave.

CC[C@H](C)[C@H](NC(=O)[C@H](C)NC(=O)[C@H](CCCCN)NC(=O)[C@H](CC(C)C)NC(=O)[C@@H](N)Cc1ccccc1)C(=O)N[C@@H](CCCCN)C(=O)N[C@@H](CCCCN)C(=O)N[C@@H](Cc1ccccc1)C(=O)NCC(=O)N[C@@H](CCCCN)C(=O)N[C@@H](CCC(=O)O)C(=O)N[C@@H](Cc1ccccc1)C(=O)N[C@@H](CCCCN)C(=O)N[C@@H](CCCCN)C(=O)N[C@H](C(=O)NCC(=O)N[C@@H](C)C(=O)N[C@@H](CCCCN)C(=O)N[C@@H](CC(C)C)C(=O)N[C@@H](CCCCN)C(=O)O)[C@@H](C)CC
viability (HaCaT; cell growth or viability, MTT; 8 µg/mL): 94.6%

CC(=O)Oc1ccc(/C=C/C(=O)Oc2cc(C(F)(F)F)cc(C(F)(F)F)c2)cc1OC(C)=O
subcytotoxic concentration (HaCaT; MTT; 24 h, 10% FBS): 25 µM

COc1cc(/C=C/c2ccc3c(c2)[C@@H](c2cc(OC)cc(OC)c2)[C@H](c2ccc(O)cc2)O3)cc(OC)c1
CC50 (dog cells; 1 (unit not given)): 1200 µM

CC[C@H](C)[C@H](NC(=O)[C@H](C)NC(=O)[C@H](CCCCN)NC(=O)[C@H](CCCCN)NC(=O)[C@@H](N)CCCNC(=N)N)C(=O)N[C@@H](CCCCN)C(=O)N[C@@H](CC(C)C)C(=O)N[C@H](C(=O)N[C@@H](CCCCN)C(=O)N[C@@H](CCCCN)C(=O)N[C@@H](CC(C)C)C(=O)N[C@H](C(=O)N[C@@H](CCCCN)C(=O)N[C@@H](CCCCN)C(=O)N[C@@H](CC(C)C)C(=O)N[C@@H](CCCCN)C(=O)N[C@@H](CCCCN)C(=O)N[C@@H](C)C(=O)N[C@@H](CC(C)C)C(=O)N[C@@H](CCCCN)C(=O)O)C(C)C)C(C)C
viability (HaCaT; cell growth or viability, MTT; 64 µg/mL): 86%

CC(=O)c1c(O)c(C)c(O)c2c1OC1=CC(=O)C(=C(C)NCCCCO)C(=O)C12C (stereo not drawn)
IC50 (L6 rat skeletal myoblasts; cytotoxicity, Alamar Blue): 13.6 µM

CC(C)C[C@H](NC(=O)[C@H](CCCNC(=N)N)NC(=O)[C@H](C)NC(=O)[C@H](CC(C)C)NC(=O)[C@H](CCCNC(=N)N)NC(=O)[C@H](C)NC(=O)[C@H](CCCCN)NC(=O)[C@H](CC(C)C)NC(=O)[C@H](CCCNC(=N)N)NC(=O)[C@H](Cc1ccc(O)cc1)NC(=O)[C@H](CC(C)C)NC(=O)[C@H](CCCNC(=N)N)NC(=O)[C@H](C)NC(=O)[C@H](CCCNC(=N)N)NC(=O)[C@H](CC(C)C)NC(=O)[C@H](CCCCN)NC(=O)[C@H](C)NC(=O)[C@H](CC(C)C)NC(=O)[C@H](CCCNC(=N)N)NC(=O)[C@H](C)NC(=O)[C@@H](N)CCCCN)C(N)=O
LC50 (human erythrocytes; haemolysis): 104 µM

CC[C@H](C)[C@H](NC(=O)[C@H](CCCCN)NC(=O)[C@H](CC(N)=O)NC(=O)CNC(=O)[C@@H](NC(=O)[C@H](C)NC(=O)[C@H](CCCNC(=N)N)NC(=O)[C@H](CC(C)C)NC(=O)[C@H](CCCCN)NC(=O)[C@H](CCCCN)NC(=O)[C@H](CCCCN)NC(=O)[C@H](C)NC(=O)[C@H](CCCCN)NC(=O)[C@@H]1CSSC[C@H](NC(=O)[C@H](CCCNC(=N)N)NC(=O)CN)C(=O)N[C@@H](CC(N)=O)C(=O)N[C@@H](CC(C)C)C(=O)N[C@@H](CC(C)C)C(=O)N1)C(C)C)C(=O)N[C@@H](CCCCN)C(=O)N[C@@H](CCC(=O)O)C(=O)N[C@H](C(=O)N[C@@H](CCCCN)C(=O)N[C@@H](CC(N)=O)C(=O)N[C@H](C(=O)N[C@H](C(=O)N[C@@H](Cc1ccccc1)C(=O)N[C@@H](CC(N)=O)C(=O)N[C@@H](CCCNC(=N)N)C(=O)O)C(C)C)C(C)C)[C@@H](C)CC
hemolysis (human erythrocytes; 20 µM, 30 min, 37 °C; reference: Triton X-100): 1.23 ± 1.14%

CN(C)CCCNC(=O)[C@@H]1NC(=O)[C@@H]2Cc3ccc(cc3)Oc3cc4cc(c3O)-c3ccc5c(c[nH]c5c3)C[C@@H](NC(=O)C(NC(=O)CCCCCN)c3ccc(O)cc3)C(=O)N[C@H](c3ccc(O)cc3)C(=O)N[C@H]4C(=O)N[C@@H](C(=O)N2C)c2ccc(cc2)Oc2cc1ccc2O (stereo partly drawn)
hemolysis (human red blood cells; PBS; 128 µg/mL, 1 h, pH 7.4, 37 °C): 0% and 2.84%

O=c1n(CCNCCOS(=O)(=O)c2ccccc2)c(=O)n(S(=O)(=O)c2ccccc2)c(=O)n1S(=O)(=O)c1ccccc1
viability (HUVEC; cell growth or viability, MTT; 200 µg/mL, 72 h): 10.4%

CC(C)Cc1ccc(C(C)C(=O)[O-])cc1.CC(C)Cc1ccc(C(C)C(=O)[O-])cc1.[Cu+2].c1ccncc1.c1ccncc1 (stereo not drawn)
IC50 (MCF7; cytotoxicity, MTT; 48 h): > 100 µM

CC[C@H](C)[C@H](NC(=O)CNC(=O)[C@@H](NC(=O)CNC(=O)[C@@H](NC(=O)CNC(=O)[C@@H](NC(=O)[C@@H](NC(=O)[C@H](CCC(N)=O)NC(=O)[C@H](CCC(=O)O)NC(=O)[C@@H](NC(=O)[C@H](CC(C)C)NC(=O)[C@H](CCCNC(=N)N)NC(=O)[C@H](Cc1ccccc1)NC(=O)[C@@H](NC(=O)[C@H](CC(N)=O)NC(=O)[C@H](CCCCN)NC(=O)CNC(=O)[C@H](CCSC)NC(=O)[C@H](CCCCN)NC(=O)CNC(=O)[C@H](CC(C)C)NC(=O)[C@H](CCCCN)NC(=O)[C@H](CCCCN)NC(=O)CNC(=O)[C@H](Cc1ccccc1)NC(=O)[C@H](CCCCN)NC(=O)[C@H](CCCCN)NC(=O)[C@H](CC(C)C)NC(=O)[C@H](Cc1c[nH]c2ccccc12)NC(=O)CN)C(C)C)C(C)C)C(C)C)C(C)C)C(C)C)C(C)C)C(=O)N[C@@H](CC(N)=O)C(=O)N[C@@H](C)C(=O)N[C@@H](CC(C)C)C(=O)N[C@@H](CO)C(=O)O
HC50 (rat erythrocytes; haemolysis; 1 h, 37 °C, 2% erythrocytes in PBS): 2.77 log10 µg/mL

CNC(=O)C[C@H](Cc1ccncc1)NC(=O)[C@@H](Cc1cccc(Br)c1)NC(=O)[C@@H](N)Cc1cccc(F)c1
viability (Huh-7-ACE2; CellTiter-Glo; 0.0122 µM, 48 h, unit not given; reference: DMSO): 0.963 and 1.02

CC(=O)NCC(=O)N[C@@H](CCCNC(=N)N)C(=O)N[C@@H](CCCCN)C(=O)N[C@@H](CCCCN)C(=O)N[C@@H](CCCNC(=N)N)C(=O)N[C@@H](CCCNC(=N)N)C(=O)N[C@@H](CCC(N)=O)C(=O)N[C@@H](CCCNC(=N)N)C(=O)N[C@@H](CCCNC(=N)N)C(=O)N[C@@H](CCCNC(=N)N)C(=O)N1CCC[C@H]1C(=O)N[C@@H](CCC(N)=O)C(N)=O
peptide amount (HEK-293T; subcellular fractionation LC-MS; nuclear fraction; 20 µM, 2 h): 0.0378 nmol and 0.0224 nmol and 0.0335 nmol

CC[C@H](C)[C@H](NC(=O)[C@H](Cc1c[nH]c2ccccc12)NC(=O)[C@H](Cc1ccc(O)cc1)NC(=O)[C@H](CCCCN)NC(=O)[C@H](CC(C)C)NC(=O)[C@H](CO)NC(=O)[C@@H](N)Cc1ccccc1)C(=O)N[C@@H](CCCNC(=N)N)C(=O)N[C@@H](Cc1ccc(O)cc1)C(=O)N[C@@H](CCCCN)C(=O)N[C@@H](CCCNC(=N)N)C(=O)N[C@@H](CCC(N)=O)C(=O)NCC(=O)N[C@@H](C)C(=O)N[C@@H](C)C(=O)N[C@@H](CCCNC(=N)N)C(=O)N[C@@H](Cc1ccccc1)C(N)=O
hemolysis (rat erythrocytes; 200 µM, 60 min, 37 °C): 4.2 ± 0.1%

CC[C@H](C)[C@H](NC(=O)[C@@H](NC(=O)[C@H](CCCNC(=N)N)NC(=O)[C@H](CCCNC(=N)N)NC(=O)[C@@H](NC(=O)[C@H](Cc1c[nH]c2ccccc12)NC(=O)[C@H](CCCNC(=N)N)NC(=O)[C@@H](NC(=O)[C@H](CC(C)C)NC(=O)[C@H](CCCNC(=N)N)NC(=O)[C@H](CCCNC(=N)N)NC(=O)[C@@H](N)C(C)C)[C@@H](C)CC)[C@@H](C)CC)C(C)C)C(N)=O
minimum haemolytic concentration (sheep red blood cells; 10% haemolysis; 1 h, 37 °C): 85 µM

CN(C)CCCCNC(=O)C[C@H](Cc1ccc(F)cc1)NC(=O)[C@@H](Cc1ccc(Cl)cc1Cl)NC(=O)[C@H](N)Cc1ccccc1C#N
cytosolic concentration (HEK-293T; LC-MS, digitonin-released cytosol; 10 µM, 4 h): 1.2 µM and 1.5 µM and 1.4 µM

CC[C@H](C)[C@H](NC(=O)CN)C(=O)NCC(=O)N[C@@H](C)C(=O)N[C@H](C(=O)N[C@@H](CC(C)C)C(=O)N[C@@H](CCCCN)C(=O)N[C@H](C(=O)N[C@@H](CC(C)C)C(=O)N[C@H](C(=O)N[C@H](C(=O)NCC(=O)N[C@@H](CC(C)C)C(=O)N1CCC[C@H]1C(=O)N[C@@H](C)C(=O)N[C@@H](CC(C)C)C(=O)N[C@H](C(=O)N[C@@H](CO)C(=O)N[C@@H](Cc1c[nH]c2ccccc12)C(=O)N[C@H](C(=O)N[C@@H](CCCCN)C(=O)N[C@@H](CCCNC(=N)N)C(=O)N[C@@H](CCCCN)C(=O)N[C@@H](CCCNC(=N)N)C(=O)N[C@@H](CCC(N)=O)C(=O)N[C@@H](CCC(N)=O)C(N)=O)[C@@H](C)CC)[C@@H](C)CC)[C@@H](C)O)[C@@H](C)O)C(C)C)C(C)C
minimum haemolytic concentration (sheep red blood cells; 10% haemolysis; 1 h, 37 °C): 4.4 µM

CC[C@H](C)[C@H](NC(=O)[C@H](Cc1c[nH]c2ccccc12)NC(=O)[C@H](CCCCN)NC(=O)[C@H](CC(C)C)NC(=O)[C@@H](NC(=O)[C@@H](NC(=O)CNC(=O)[C@@H](N)CCCCN)[C@@H](C)O)[C@@H](C)CC)C(=O)N[C@@H](CC(N)=O)C(=O)N[C@@H](C)C(=O)NCC(=O)N[C@@H](CCC(N)=O)C(=O)N[C@@H](CO)C(=O)N[C@@H](Cc1ccccc1)C(=O)N[C@@H](CCC(=O)O)C(=O)N[C@@H](Cc1c[nH]c2ccccc12)C(=O)N[C@H](C(=O)N[C@@H](Cc1ccc(O)cc1)C(=O)N[C@@H](CCCCN)C(=O)N[C@@H](CCC(N)=O)C(=O)N[C@H](C(=O)N[C@@H](CCCCN)C(=O)N[C@@H](CCCCN)C(=O)N[C@@H](CC(C)C)C(=O)N[C@@H](Cc1c[nH]c2ccccc12)C(=O)N[C@@H](C)C(N)=O)[C@@H](C)CC)[C@@H](C)CC
HD50 (human erythrocytes; hemolysis; pH 7.2; reference: water complete hemolysis): 150 µg/mL

CCN(CCCCOc1ccc(CCC(=O)N2CCC(Cc3ccccc3)CC2)cc1OC)Cc1ccccc1
Papp(A-B) (Caco-2 monolayer; 40 µM, 120 min): 8.27 ± 0.03 ×10⁻⁶ cm/s

CNC(=O)CC[C@H](Cc1ccccc1)NC(=O)[C@@H](Cc1ccc(Cl)cc1Cl)NC(=O)[C@H](N)Cc1ccccc1[N+](=O)[O-]
viability (Huh-7-ACE2; CellTiter-Glo; 0.000191 µM, 48 h, unit not given; reference: DMSO): 0.964 and 1.05 and 1.07

CC[C@H](C)[C@H](NC(=O)CNC(=O)[C@H](CC(C)C)NC(=O)[C@@H](NC(=O)CNC(=O)[C@H](CC(C)C)NC(=O)[C@H](CCC(N)=O)NC(=O)[C@@H](NC(=O)[C@H](CO)NC(=O)[C@H](C)NC(=O)[C@H](CCCCN)NC(=O)[C@H](CCCNC(=N)N)NC(=O)[C@H](CC(C)C)NC(=O)CNC(=O)[C@H](CCC(N)=O)NC(=O)[C@H](CC(C)C)NC(=O)[C@H](CC(C)C)NC(=O)[C@H](CCC(=O)O)NC(=O)CNC(=O)[C@H](CCCNC(=N)N)NC(=O)[C@@H](NC(=O)[C@H](CCCCN)NC(=O)[C@H](Cc1ccccc1)NC(=O)[C@H](CCCCN)NC(=O)[C@H](CCCCN)NC(=O)[C@H](CO)NC(=O)[C@H](CCCCN)NC(=O)[C@H](CC(C)C)NC(=O)[C@H](CC(C)C)NC(=O)[C@H](CCCCN)NC(=O)[C@H](CCCCN)NC(=O)[C@@H](NC(=O)[C@@H](NC(=O)[C@H](CCCCN)NC(=O)CNC(=O)[C@H](CC(C)C)NC(=O)[C@H](CCCCN)NC(=O)[C@H](C)N)[C@@H](C)O)[C@@H](C)CC)[C@@H](C)CC)C(C)C)[C@@H](C)O)C(=O)N[C@@H](CC(C)C)C(=O)O
IC50 (HUVEC; cytotoxicity, MTT; 24 h, 37 °C): 36.2 µM

Some of these lines once more:
CC[C@H](C)[C@H](NC(=O)[C@H](Cc1c[nH]c2ccccc12)NC(=O)[C@H](Cc1ccc(O)cc1)NC(=O)[C@H](CCCCN)NC(=O)[C@H](CC(C)C)NC(=O)[C@H](CO)NC(=O)[C@@H](N)Cc1ccccc1)C(=O)N[C@@H](CCCNC(=N)N)C(=O)N[C@@H](Cc1ccc(O)cc1)C(=O)N[C@@H](CCCCN)C(=O)N[C@@H](CCCNC(=N)N)C(=O)N[C@@H](CCC(N)=O)C(=O)NCC(=O)N[C@@H](C)C(=O)N[C@@H](C)C(=O)N[C@@H](CCCNC(=N)N)C(=O)N[C@@H](Cc1ccccc1)C(N)=O
hemolysis (rat erythrocytes; 200 µM, 60 min, 37 °C): 4.2 ± 0.1%

CC[C@H](C)[C@H](NC(=O)[C@@H](NC(=O)[C@H](CCCNC(=N)N)NC(=O)[C@H](CCCNC(=N)N)NC(=O)[C@@H](NC(=O)[C@H](Cc1c[nH]c2ccccc12)NC(=O)[C@H](CCCNC(=N)N)NC(=O)[C@@H](NC(=O)[C@H](CC(C)C)NC(=O)[C@H](CCCNC(=N)N)NC(=O)[C@H](CCCNC(=N)N)NC(=O)[C@@H](N)C(C)C)[C@@H](C)CC)[C@@H](C)CC)C(C)C)C(N)=O
minimum haemolytic concentration (sheep red blood cells; 10% haemolysis; 1 h, 37 °C): 85 µM
